Published values from different studies.
Lines come from different studies, so protocols differ. ± gives the spread as reported.

SMILES | assay | test system | conditions | AUC(0-t)
C[C@H](N)C(=O)N1C[C@H](CCCB(O)O)[C@](N)(C(=O)O)C1 | – | human, plasma | oral, 50 mg, cycle 1 day 1 | 8100 ± 3250 ng·h/mL
COc1c(OCCCN2CCOCC2)ccc2c1N=C(NC(=O)c1cnc(N)nc1)N1CCN=C21 | – | human cancer patients, plasma | intravenous, 0.6 mg/kg weekly, cycle 1 day 15, geometric mean, with: refametinib 30 mg twice daily | 619 ng·h/mL
Cc1[nH]c(/C=C2\C(=O)Nc3ccccc32)c(C)c1CCC(=O)O | – | human patients | oral, 200 mg/m^2 three times daily, after meal, dose 82 | 15200 ± 4890 ng·h/mL
CCn1c(=O)c2c(nc(/C=C/c3ccc(OC)c(OC)c3)n2C)n(CC)c1=O | – | healthy human, plasma | oral, 40 mg single dose, arithmetic mean, with: rifampin 600 mg/day steady state | 2040 ng·h/mL
CC(C)(/C=C(\C#N)C(=O)N1CCC[C@@H](n2nc(-c3ccc(Oc4ccccc4)cc3F)c3c(N)ncnc32)C1)N1CCN(C2COC2)CC1 | – | human, plasma | oral, 100 mg single dose, median | 51 ng·h/mL
CC(C)[C@H](N)C(=O)NCCCS(=O)(=O)O | – | human, both sexes, plasma | oral, 300 mg capsule | 9610 ± 2680 ng·h/mL
Cc1ccc(NC(=O)c2ccc(CN3CCN(C)CC3)cc2)cc1Nc1nccc(-c2cncc(-c3oncc3C)c2)n1 | – | older healthy human adults, plasma | oral, 175 mg single dose, fed, mean | 170000 ng·h/mL
COc1cc(Nc2ncc3c(n2)-c2ccc(Cl)cc2C(c2c(F)cccc2OC)=NC3)ccc1C(=O)O | – | human, plasma | oral, 50 mg single, fed | 21.7 µM·h
Cc1cc(-c2nnc(N)nc2-c2ccc(F)cc2)cc(Cl)n1 | – | human patients, plasma | oral, 150 mg capsule, single dose, arithmetic mean | 9290 ng·h/mL
O=C(O)CNC(=O)c1c(O)c2ccccc2n(OCC2CC2)c1=O | LC-MS/MS | human, blood | oral, 300 mg multiple doses | 40500 ± 18000 ng·h/mL
CCCCC[C@H](O)CC[C@@H]1[C@H]2Cc3cccc(OCC(=O)O)c3C[C@H]2C[C@H]1O | – | human Japanese PAH patients, plasma | inhalation, 54 µg four times daily, week 12 | 0.99 ± 0.57 ng·h/mL
CC(=O)c1c(C)c2cnc(Nc3ccc(N4CCNCC4)cn3)nc2n(C2CCCC2)c1=O | – | human | oral, 95 mg/m^2 repeated doses, day 21 | 2290 ng·h/mL
CC(C)NC[C@@H](C(=O)N1CCN(c2ncnc3c2[C@H](C)C[C@H]3O)CC1)c1ccc(Cl)cc1 | – | human, Mild hepatic function, plasma | oral, 100 mg single dose, NCI classification, geometric mean | 414 ng·h/mL
CCCCC1(CCCC)CN(c2ccccc2)c2cc(SC)c(OCC(=O)N[C@@H](C(=O)NCC(=O)O)c3ccccc3)cc2S(=O)(=O)C1 | – | human, plasma | oral, 5 mg, before breakfast | 0.633 ng·h/mL
COc1cccc(-c2ccc(NC(=O)C3=C(C(=O)O)CCC3)c(F)c2)c1 | – | human, male, fasted, plasma | oral, 20 mg, single dose, geometric mean | 73000 ng·h/mL
CC(C)[C@@H](CS(=O)(=O)C(C)C)N1C(=O)[C@@](C)(CC(=O)O)C[C@H](c2cccc(Cl)c2)[C@H]1c1ccc(Cl)cc1 | – | human, plasma | oral, 60 mg, new tablet, fasted, arithmetic mean | 3390 ng·h/mL
CC(C)C[C@H](NC(=O)[C@H](CCc1ccccc1)NC(=O)CN1CCOCC1)C(=O)N[C@@H](Cc1ccccc1)C(=O)N[C@@H](CC(C)C)C(=O)[C@@]1(C)CO1 | – | human patients, plasma | intravenous infusion 10 min, 27 mg/m^2, day 16 of cycle 1, KRd regimen | 444 ± 56 ng·h/mL

SMILES | assay | test system | conditions | AUC(0-t)
C=C(C)[C@@H]1CC[C@]2(NCCN3CCS(=O)(=O)CC3)CC[C@]3(C)[C@H](CC[C@@H]4[C@@]5(C)CC=C(C6=CC[C@@](CF)(C(=O)O)CC6)C(C)(C)[C@@H]5CC[C@]43C)[C@@H]12 | – | healthy human volunteers, plasma | oral, 200 mg, tablet, fasted state, geometric mean | 11400 ng·h/mL
CNC(=O)c1ccc(-c2cnc3ncc(Cc4ccc5ncccc5c4)n3n2)cc1F | – | healthy human subjects, plasma | oral, 200 mg, geometric mean, with: itraconazole 200 mg/day | 7430 ng·h/mL
CCCC[C@H](NC(C)=O)C(=O)N[C@H]1CCC(=O)NC[C@@H](C(=O)N[C@@H](Cc2c[nH]c3ccccc23)C(N)=O)NC(=O)[C@H](CCCNC(=N)N)NC(=O)[C@@H](Cc2ccccc2)NC(=O)[C@H](Cc2c[nH]cn2)NC1=O | – | healthy human, both sexes, plasma | subcutaneous, 1.0 mg once daily, day 1, geometric mean | 47.4 ng·h/mL
CNc1nc(Nc2ccc(-n3cnc(C)n3)c(OC)c2)nc2c1CC[C@H]2c1ccc(F)cc1 | – | human | oral, 100 mg once daily, day 28, multiple ascending dose, geometric mean | 9080 ng·h/mL
C=CC(=O)Nc1cc(Nc2ncc(C(=O)OC(C)C)c(-c3cn(C)c4ccccc34)n2)c(OC)cc1N(C)CCN(C)C | – | human, fasted | oral, 80 mg single dose, arithmetic mean | 301 ng·h/mL
CN(Cc1cnc2nc(N)nc(N)c2n1)c1ccc(C(=O)N[C@@H](CCC(=O)O)C(=O)O)cc1 | – | human | oral, dose not given, day 8, with: isavuconazole | 587 ng·h/mL
O=C(NCCN1CCCC1)c1cc(-c2ccc(CN3CCOCC3)cc2)nc2ccc(F)cc12 | LC-MS/MS | human, whole blood | oral, 200 mg, single dose, geometric mean | 2630 ng·h/mL
Cc1nc2cccc(N)c2c(=O)n1C1CCC(=O)NC1=O (stereo not drawn) | – | healthy adult human, plasma | oral, 3 mg, geometric mean, with: rifampin 600 mg once daily | 430 ng·h/mL
CN[C@@H]1COc2c(S(=O)(=O)NC(=O)Nc3c4c(cc5c3CCC5)CCC4)cnn2C1 | – | human | oral, 600 mg, high-fat meal, geometric LS mean | 147000 ng·h/mL
CN(Cc1cnc2nc(N)nc(N)c2n1)c1ccc(C(=O)N[C@@H](CCC(=O)O)C(=O)O)cc1 | – | human, both sexes, plasma | oral, 15 mg, day 1, alone, arithmetic mean | 1740 ng·h/mL
C#C[C@]1(O)CC[C@H]2[C@@H]3CCc4cc(O)ccc4[C@H]3CC[C@@]21C | – | human female, plasma | oral, 35 µg, day 1, with: norethindrone 1 mg | 1 ng·h/mL
O=c1[nH]c(=O)c(Cc2cccc(C(F)(F)F)c2)c([C@H]2CC[C@H](c3ccccc3)CC2)[nH]1 | – | human, fasted, plasma | oral, 300 mg single dose, geometric mean | 2940 ng·h/mL
Cc1cc(C)c2c(c1)[C@@H](N(Cc1cc(C(F)(F)F)cc(C(F)(F)F)c1)c1nnn(C)n1)CCCN2C[C@H]1CC[C@H](C(=O)O)CC1 | – | human, plasma | oral, 600 mg once daily, steady state, geometric mean | 13700 ng·h/mL
CC[C@H](C)[C@H](NC(=O)[C@H](Cc1ccc(O)cc1)NC(=O)[C@@H](NC(=O)[C@@H](N)CCCNC(=N)N)C(C)C)C(=O)N[C@@H](Cc1c[nH]cn1)C(=O)N1CCC[C@H]1C(=O)N[C@@H](Cc1ccccc1)C(=O)N[C@@H](Cc1c[nH]cn1)C(=O)N[C@@H](CC(C)C)C(=O)O | – | healthy humans, plasma | oral, 0.70 mg/kg single dose, 0 to 12 h | 58.3 ± 13.1 ng·h/mL
Cl.NCCc1c[nH]c(=S)n1[C@H]1COc2c(F)cc(F)cc2C1 | – | human male, fasted, plasma | oral, 200 mg single dose, arithmetic mean | 1860 ng·h/mL
COc1cc2c(Oc3ccc4[nH]c(C)cc4c3F)ncnc2cc1OCCCN1CCCC1 | – | human, patients, plasma | oral, 20 mg/m^2 once daily, day 28 | 239 ng·h/mL

For quick reference, copied from above:
SMILES | assay | test system | conditions | AUC(0-t)
O=C(O)CNC(=O)c1c(O)c2ccccc2n(OCC2CC2)c1=O | LC-MS/MS | human, blood | oral, 300 mg multiple doses | 40500 ± 18000 ng·h/mL
CCCCC[C@H](O)CC[C@@H]1[C@H]2Cc3cccc(OCC(=O)O)c3C[C@H]2C[C@H]1O | – | human Japanese PAH patients, plasma | inhalation, 54 µg four times daily, week 12 | 0.99 ± 0.57 ng·h/mL
CC(=O)c1c(C)c2cnc(Nc3ccc(N4CCNCC4)cn3)nc2n(C2CCCC2)c1=O | – | human | oral, 95 mg/m^2 repeated doses, day 21 | 2290 ng·h/mL
